Earlier results, collected from citations in different studies.
Compare with care: the assays were run in different laboratories. Converted amounts (≈) assume the structure as drawn.
UniProt P21917, sequence (whole entry, looked up): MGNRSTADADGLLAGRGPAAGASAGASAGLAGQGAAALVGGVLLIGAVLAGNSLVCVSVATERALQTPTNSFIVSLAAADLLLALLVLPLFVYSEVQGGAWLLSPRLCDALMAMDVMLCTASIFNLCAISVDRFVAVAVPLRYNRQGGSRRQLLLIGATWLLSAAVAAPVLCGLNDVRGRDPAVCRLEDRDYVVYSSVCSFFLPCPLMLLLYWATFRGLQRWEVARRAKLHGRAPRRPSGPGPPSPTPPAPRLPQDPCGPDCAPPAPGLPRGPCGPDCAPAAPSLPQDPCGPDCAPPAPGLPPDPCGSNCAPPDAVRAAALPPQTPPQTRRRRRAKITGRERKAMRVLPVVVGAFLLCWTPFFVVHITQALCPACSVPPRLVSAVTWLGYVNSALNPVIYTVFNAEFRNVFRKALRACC
UniProt P21918, sequence (whole entry, looked up): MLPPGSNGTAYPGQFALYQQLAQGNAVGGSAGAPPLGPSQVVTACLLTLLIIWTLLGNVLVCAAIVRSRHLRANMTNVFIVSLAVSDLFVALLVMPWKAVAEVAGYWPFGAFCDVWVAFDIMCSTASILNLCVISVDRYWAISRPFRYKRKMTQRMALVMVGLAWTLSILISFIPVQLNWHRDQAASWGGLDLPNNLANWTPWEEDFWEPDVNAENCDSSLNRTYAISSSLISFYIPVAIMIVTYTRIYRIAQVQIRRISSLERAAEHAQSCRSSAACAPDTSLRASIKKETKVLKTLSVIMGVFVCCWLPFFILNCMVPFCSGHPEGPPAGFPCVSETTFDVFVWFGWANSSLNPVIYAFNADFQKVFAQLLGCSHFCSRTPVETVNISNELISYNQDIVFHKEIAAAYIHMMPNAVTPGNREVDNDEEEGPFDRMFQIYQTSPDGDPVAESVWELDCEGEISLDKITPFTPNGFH

With CC(C)(C)NC(=O)N[C@H](C(=O)N1C[C@H]2[C@@H]([C@H]1C(=O)NC(CC1CCC1)C(=O)C(N)=O)C2(C)C)C(C)(C)C (stereo partly drawn) the cure rate was 60 to 80% (hepatitis C virus; HCV-infected patients; dose not given, with: ribavirin and pegylated interferon alpha).
For `interferon alpha`, “replicon RNA level” read roughly 100 copies per cell (Norwalk virus; viral replication; HG23 Norwalk virus replicon cells; 20 units).
C=CCN(CC=C)CCc1c[nH]c2ccc(Br)cc12 gave a Ki of greater than 10 µM (DRD5 (Homo sapiens, UniProt P21918)).
Cc1nc(N(C)C(=O)Cc2ccc(-c3ccccn3)cc2)sc1S(N)(=O)=O gave a mortality of 10% (HSV-2; mouse; oral, 15 or 60 mg/kg three times daily, day 3 to 7 post infection).
With Cc1ccc(C(C)C)c(O)c1 the MIC90 was 200 to 2290 µg/mL (≈ 1330 to 15300 µM) (bacterial isolates; canine otitis externa, multidrug-resistant).
CCOc1ccc2cc(-c3nn(CC4CCN(C)CC4)c4ncnc(N)c34)ccc2c1 — result for “protection against pup mortality”: 87% (Neospora caninum; pregnant mice; dose not given).
With Cc1ccc(C(C)C)cc1O the survival increase was 100% (Candida albicans; Galleria mellonella; dose not given, post-infection treatment).
With CC(C)(O/N=C(\C(=O)N[C@@H]1C(=O)N2C(C(=O)[O-])=C(C[n+]3ccccc3)CS[C@H]12)c1csc(N)n1)C(=O)O the MIC was greater than 32 µg/mL (Acinetobacter baumannii; OXA-225 producing).
For c1ccc(CNc2nc(Nc3ccccc3)nc3ccccc23)cc1, the IC50 was 1.5 µM (Trypanosoma cruzi; Tulahuen C4 LacZ).
The Ki of C=CCN(CC=C)CCc1c[nH]c2ccccc12 is reported as greater than 10 µM (DRD4 (Homo sapiens, UniProt P21917); binding; cloned human receptor; with: [3H]N-methylspiperone).
CO[C@@H]1[C@H](OP(=O)(OC[C@H]2O[C@@H](n3cnc4c(N)ncnc43)C[C@@H]2O)SCOC(=O)OC(C)C)[C@@H](CO)O[C@H]1n1ccc(=O)[nH]c1=O (stereo partly drawn): “HCV RNA reduction” no more than 1.9 log10 (hepatitis C virus; chronic HCV patients, phase I; dose not given).
With COCCNC(=O)c1ccc(OC2CCN(Cc3ccc(F)c(F)c3)CC2)c(Cl)c1 the IC50 was greater than 32 µM (Trypanosoma cruzi; Tulahuen C4 LacZ).
The selectivity index of Cn1c(Cn2ccc(C(F)(F)F)c(Oc3cc(Cl)cc(C#N)c3)c2=O)n[nH]c1=O is reported as greater than 2300 (HIV-1; RES056 K103N/Y181C; relative to: CC50 over EC50).
NC(=O)c1ncn([C@@H]2O[C@H](CO)[C@@H](O)[C@H]2O)n1 gave an EC50 of 5.1 µM (influenza B virus; viral replication, MTT; Singapore).
The IC50 of Cc1cc(Nc2ccc(C)c(Cl)c2)n2nc(C(F)(F)F)nc2n1 is reported as 22.9 µM (Trypanosoma cruzi; Tulahuen C4 LacZ).

A few entries again:
With CC(C)(C)NC(=O)N[C@H](C(=O)N1C[C@H]2[C@@H]([C@H]1C(=O)NC(CC1CCC1)C(=O)C(N)=O)C2(C)C)C(C)(C)C (stereo partly drawn) the cure rate was 60 to 80% (hepatitis C virus; HCV-infected patients; dose not given, with: ribavirin and pegylated interferon alpha).
For `interferon alpha`, “replicon RNA level” read roughly 100 copies per cell (Norwalk virus; viral replication; HG23 Norwalk virus replicon cells; 20 units).
